Measured values pooled from the literature.
Compare with care: the assays were run in different laboratories. ± gives the spread as reported.
AR: Androgen receptor (AR, Homo sapiens, UniProt P10275)
Faah: Fatty-acid amide hydrolase 1 (Faah, Mus musculus, UniProt O08914)
Sequence of UniProt O08914 (whole entry, looked up): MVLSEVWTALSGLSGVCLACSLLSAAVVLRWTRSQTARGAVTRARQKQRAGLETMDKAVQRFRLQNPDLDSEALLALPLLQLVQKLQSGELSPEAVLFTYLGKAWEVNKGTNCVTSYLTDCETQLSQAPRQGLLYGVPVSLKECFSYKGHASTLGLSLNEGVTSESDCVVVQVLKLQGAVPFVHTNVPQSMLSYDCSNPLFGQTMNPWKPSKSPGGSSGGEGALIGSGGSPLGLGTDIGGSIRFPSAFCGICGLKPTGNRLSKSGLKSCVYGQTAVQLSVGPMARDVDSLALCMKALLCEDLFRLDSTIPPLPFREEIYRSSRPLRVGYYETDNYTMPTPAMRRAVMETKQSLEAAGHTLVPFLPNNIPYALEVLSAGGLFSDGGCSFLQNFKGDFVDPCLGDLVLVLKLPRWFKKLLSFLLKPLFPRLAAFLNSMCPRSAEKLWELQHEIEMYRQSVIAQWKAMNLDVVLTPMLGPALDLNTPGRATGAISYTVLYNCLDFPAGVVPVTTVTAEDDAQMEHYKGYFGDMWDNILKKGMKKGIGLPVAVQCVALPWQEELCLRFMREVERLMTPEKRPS
Sequence of UniProt O14746 (whole entry, looked up): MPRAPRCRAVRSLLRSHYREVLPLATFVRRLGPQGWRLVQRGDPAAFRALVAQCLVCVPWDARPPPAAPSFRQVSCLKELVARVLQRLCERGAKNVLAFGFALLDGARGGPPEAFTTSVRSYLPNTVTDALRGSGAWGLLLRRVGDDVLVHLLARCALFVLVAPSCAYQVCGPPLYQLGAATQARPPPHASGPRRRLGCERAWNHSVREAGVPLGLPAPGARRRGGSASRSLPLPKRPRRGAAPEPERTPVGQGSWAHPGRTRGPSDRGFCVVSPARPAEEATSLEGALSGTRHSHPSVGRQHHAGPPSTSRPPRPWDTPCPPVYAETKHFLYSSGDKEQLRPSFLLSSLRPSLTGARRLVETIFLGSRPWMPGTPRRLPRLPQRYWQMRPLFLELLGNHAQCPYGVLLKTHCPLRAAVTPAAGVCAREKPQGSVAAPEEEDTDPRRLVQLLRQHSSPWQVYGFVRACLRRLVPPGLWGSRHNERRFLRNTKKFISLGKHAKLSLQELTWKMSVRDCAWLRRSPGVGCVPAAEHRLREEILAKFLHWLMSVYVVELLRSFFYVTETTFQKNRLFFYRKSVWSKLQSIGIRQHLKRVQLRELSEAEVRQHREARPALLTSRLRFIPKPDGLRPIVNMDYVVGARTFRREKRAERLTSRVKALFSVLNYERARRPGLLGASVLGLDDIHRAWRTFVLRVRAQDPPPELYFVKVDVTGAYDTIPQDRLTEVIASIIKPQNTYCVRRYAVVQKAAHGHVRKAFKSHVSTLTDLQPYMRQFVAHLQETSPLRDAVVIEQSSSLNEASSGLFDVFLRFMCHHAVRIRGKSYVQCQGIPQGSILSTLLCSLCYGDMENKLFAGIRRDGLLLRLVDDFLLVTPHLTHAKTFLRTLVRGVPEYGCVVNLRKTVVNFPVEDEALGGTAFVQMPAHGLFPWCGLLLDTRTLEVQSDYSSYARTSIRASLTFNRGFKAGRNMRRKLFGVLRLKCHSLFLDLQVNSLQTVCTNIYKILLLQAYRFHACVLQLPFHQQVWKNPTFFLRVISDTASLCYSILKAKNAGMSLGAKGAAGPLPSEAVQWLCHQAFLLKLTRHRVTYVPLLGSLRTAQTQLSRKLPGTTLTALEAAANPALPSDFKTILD
Sequence of UniProt Q08345 (whole entry, looked up): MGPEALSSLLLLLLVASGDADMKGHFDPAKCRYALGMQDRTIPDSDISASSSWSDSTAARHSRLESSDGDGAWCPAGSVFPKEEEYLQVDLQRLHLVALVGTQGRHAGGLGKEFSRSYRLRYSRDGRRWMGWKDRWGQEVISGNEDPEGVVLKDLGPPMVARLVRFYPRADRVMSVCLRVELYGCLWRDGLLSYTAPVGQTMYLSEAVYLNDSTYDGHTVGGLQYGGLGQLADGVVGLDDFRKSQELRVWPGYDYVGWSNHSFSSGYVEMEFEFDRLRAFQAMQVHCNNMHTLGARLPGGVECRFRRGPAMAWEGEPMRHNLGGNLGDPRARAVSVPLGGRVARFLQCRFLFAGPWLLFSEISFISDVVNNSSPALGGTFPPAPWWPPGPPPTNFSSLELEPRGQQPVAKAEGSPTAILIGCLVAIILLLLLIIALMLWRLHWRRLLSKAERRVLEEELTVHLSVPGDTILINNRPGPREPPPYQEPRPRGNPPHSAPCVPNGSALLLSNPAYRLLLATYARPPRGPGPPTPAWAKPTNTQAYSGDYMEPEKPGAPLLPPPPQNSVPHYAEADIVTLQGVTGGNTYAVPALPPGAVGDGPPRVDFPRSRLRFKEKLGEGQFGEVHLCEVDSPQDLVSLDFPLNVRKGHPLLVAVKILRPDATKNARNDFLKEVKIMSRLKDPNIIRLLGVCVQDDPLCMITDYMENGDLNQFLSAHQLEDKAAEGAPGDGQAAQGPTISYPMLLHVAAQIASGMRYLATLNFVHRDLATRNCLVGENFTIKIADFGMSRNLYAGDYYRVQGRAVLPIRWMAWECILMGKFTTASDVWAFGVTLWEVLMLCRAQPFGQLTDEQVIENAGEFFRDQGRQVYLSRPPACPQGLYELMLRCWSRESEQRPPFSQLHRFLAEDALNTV

SMILES | tested on | test | system | setting | scale | endpoint | result
CCCCSc1nc2c([nH]1)c(=S)n(C)c(=S)n2C | AR | reporter gene, antagonist, PSA-luciferase | HeLa-A6 | 10 µM, 24 h, with: 5 nM dihydrotestosterone | reference: maximal activity | remaining activity | 76%
N=C(N)NCCC[C@@H]1NC(=O)[C@H](CCCCNC(=O)CNC(=O)CNC(=O)CNC(=O)CC[C@H](NC(=O)CNC(=O)CNC(=O)CNC(=O)CC[C@H](NC(=O)CN2CCN(CC(=O)O)CCN(CC(=O)O)CCN(CC(=O)O)CC2)C(=O)NCC(=O)NCC(=O)NCC(=O)N[C@@H](CCC(=O)NCC(=O)NCC(=O)NCC(=O)NCCCC[C@@H]2NC(=O)[C@@H](Cc3ccccc3)NC(=O)[C@H](CC(=O)O)NC(=O)CNC(=O)[C@H](CCCNC(=N)N)NC2=O)C(=O)NCC(=O)NCC(=O)NCC(=O)NCCCC[C@@H]2NC(=O)[C@@H](Cc3ccccc3)NC(=O)[C@H](CC(=O)O)NC(=O)CNC(=O)[C@H](CCCNC(=N)N)NC2=O)C(=O)NCC(=O)NCC(=O)NCC(=O)NCCCC[C@@H]2NC(=O)[C@@H](Cc3ccccc3)NC(=O)[C@H](CC(=O)O)NC(=O)CNC(=O)[C@H](CCCNC(=N)N)NC2=O)NC(=O)[C@@H](Cc2ccccc2)NC(=O)[C@H](CC(=O)O)NC(=O)CNC1=O [indium-111 labelled] |  |  | female athymic nu/nu mice, heart | intravenous, 72 h |  | tissue uptake | 0.51 ± 0.16 %ID/g
CC1(C)CCN(Cc2ccc(C(=O)NC[C@]3(O)CCCN(c4cc(NCc5ccccc5)ncn4)C3)c(O)c2)CC1 | Epithelial discoidin domain-containing receptor 1 (DDR1, Homo sapiens, UniProt Q08345) | kinase activity, radiometric |  | 10 µM, with: 10 µM ATP |  | remaining activity | 96%
[N-]=[N+]=N[C@H]1C[C@H](n2cnc3c(N)ncnc32)O[C@@H]1COP(=O)(O)OP(=O)(O)OP(=O)(O)O | Telomerase reverse transcriptase (TERT, Homo sapiens, UniProt O14746) | enzyme activity, stretch PCR |  | 10 µM, with: competing dNTP 10 µM |  | remaining activity | 85%
CN(Cc1cnc2ccccc2n1)C(=O)Nc1nc(-c2ccco2)n[nH]1 | Single-stranded DNA cytosine deaminase (AICDA, Homo sapiens, UniProt Q9GZX7) | deaminase activity, inhibitor, alkaline cleavage | purified GST-AID | 500 to 840 µM, pH 7.2, 37 °C, DMSO 100% |  | remaining activity | 8.3%
[64Cu+2].c1ccc(CNCc2ccc(CN3CCCN4CCNCCCN(CC4)CC3)cc2)nc1 | CXCR4 |  | NOD/SCID mouse, U87 and U87-stb-CXCR4 xenografts, blood | iv, 30 min, ex vivo |  | tissue uptake | 3.9 ± 0.57 %ID/g
CC1(C)COCN1C(=O)n1nnc2c(F)cc(F)cc21 | Faah | inhibitor | mouse, liver | oral, 0.1 mg/kg, 8 h after dose | reference: control | remaining activity | 19 ± 9%
NC(CNC(CNC(CC(=O)O)C(=O)O)C(=O)O)C(=O)O (stereo not shown) | angiotensin-converting enzyme, rabbit |  |  | 500 µM, 60 min, Zn-depleted buffer |  | remaining activity | 46.9 ± 8.9%
COc1ccc2nnn(C(=O)N3COCC3(C)C)c2c1 | Faah | inhibitor | mouse, liver | oral, 0.1 mg/kg, 8 h after dose | reference: control | remaining activity | 39 ± 7%
CC(C)CCSc1nc2c([nH]1)c(=S)n(C)c(=O)n2C | AR | reporter gene, antagonist, PSA-luciferase | HeLa-A6 | 10 µM, 24 h, with: 5 nM dihydrotestosterone | reference: maximal activity | remaining activity | 74%
O=C(Nc1ccc(OC(F)(F)F)cc1)N1CCC(Cc2cccc(Oc3ccc(C(F)(F)F)cn3)c2)CC1 | Faah |  | mice, brain | intraperitoneal, 10 mg/kg, 4 h, vehicle DMSO | reference: control | remaining activity | 22 ± 15%
CN(C)c1ccc(C(=O)N[C@@H](CSCCCC(=O)NO)C(=O)Nc2ccc(-c3ccccc3)cc2)cc1 | Lucilia cuprina | pupation | LS strain, larvae on impregnated cotton wool | 216 h |  | IC50 | 863 µg
CC(C)c1cc2ccc3ccccc3c2oc1=O | Tyrosine-protein kinase SYK (SYK, Homo sapiens, UniProt P43405) | enzyme activity, inhibitor, ADP-Glo |  | 5 µM |  | remaining activity | 86 ± 3.7%
[64Cu+2].c1cnc(CNCc2ccc(CN3CCCN4CCNCCCN(CC4)CC3)cc2)nc1 | CXCR4 |  | NOD/SCID mouse, U87 and U87-stb-CXCR4 xenografts, muscle | iv, 90 min, ex vivo |  | tissue uptake | 0.4 ± 0.05 %ID/g
CCCCCCCCSc1nc2c([nH]1)c(=O)n(C)c(=O)n2C | AR | reporter gene, antagonist, PSA-luciferase | HeLa-A6 | 10 µM, 24 h, with: 5 nM dihydrotestosterone | reference: maximal activity | remaining activity | 101%
CC(=O)[O-].O.O.[O-]c1ccc(Br)cc1C=NCCN1CCOCC1.[Zn+2] | Chromobacterium violaceum |  |  | 20 µL of 100 µM per disc |  | inhibition zone diameter | 15 mm

Some of these lines once more:
SMILES | tested on | test | system | setting | scale | endpoint | result
CC1(C)COCN1C(=O)n1nnc2c(F)cc(F)cc21 | Faah | inhibitor | mouse, liver | oral, 0.1 mg/kg, 8 h after dose | reference: control | remaining activity | 19 ± 9%
NC(CNC(CNC(CC(=O)O)C(=O)O)C(=O)O)C(=O)O (stereo not shown) | angiotensin-converting enzyme, rabbit |  |  | 500 µM, 60 min, Zn-depleted buffer |  | remaining activity | 46.9 ± 8.9%
